Assay results pooled from the literature.
Each line is one published result; not all experiments were run side by side. Numbers after ± are the reported error.
Organism: Klebsiella pneumoniae

With `CC(C)C[C@H](NC(=O)[C@H](CC(N)=O)NC(=O)[C@H](CCCNC(=N)N)NC(=O)[C@@H](CC(C)C)NC(=O)[C@H](Cc1ccc2ccccc2c1)NC(=O)[C@H](CC(=O)O)NC(=O)[C@H](CCCCN)NC(=O)[C@@H](CC(C)C)NC(=O)[C@H](CCCNC(=N)N)NC(=O)[C@H](CCC(N)=O)NC(=O)[C@@H](NC(=O)[C@@H](CC(C)C)NC(=O)[C@H](CCCNC(=N)N)NC(=O)[C@H](CCCCN)NC(=O)[C@H](Cc1ccccc1)NC(=O)CN)C(C)C)C(=O)N[C@H](C(N)=O)C(C)C` the MIC was 25 µM (broth microdilution; ATCC 13883).
For `CCn1[c]([Au-]([Cl])([Cl])[Cl])[n+](CC)c2ccc(C(=O)OC)cc21`, the MIC was 24.9 ± 8.6 µM (broth dilution; DSM 11678; 20 h, 37 °C).
`Oc1c(Cl)cc(Cl)c2cccnc12` gave an MIC of 1200 µM (microbial growth, agar dilution; ATCC700603).
The MIC of `CC[C@H](C)CCCCC(=O)N[C@@H](CCN)C(=O)N[C@H](C(=O)N[C@H](CO)C(=O)N[C@H]1CCNC(=O)[C@H](CC(C)C)NC(=O)[C@H](CCN)NC(=O)[C@H](CCN)NC(=O)[C@H]([C@@H](C)CC)NC(=O)[C@@H](CC(C)C)NC(=O)[C@H](CCN)NC1=O)[C@@H](C)O` is reported as 1 µg/mL (ATCC 13883).
The MIC of `CCOC(=O)c1ccc2c(c1)n(CC)[c]([Au-]([Cl])([Cl])[Cl])[n+]2CC` is reported as 29.1 µM (broth dilution; DSM 11678; 20 h, 37 °C).
For `CC(C)CS[C@H]1[C@H](O)[C@@H](N)[C@@H](O[C@H]2[C@H](O[C@@H]3O[C@H](CO)[C@@H](O[C@H]4O[C@@H](CN)[C@@H](O)[C@H](O)[C@H]4N)[C@H]3O)[C@@H](O)[C@H](N)C[C@@H]2N)O[C@@H]1CO`, the MIC was 4 µg/mL (AG215).
The MIC of `CC(C)C[C@H](NC(=O)[C@H](CC(N)=O)NC(=O)[C@H](CCCNC(=N)N)NC(=O)[C@@H](CC(C)C)NC(=O)[C@H](Cc1ccc2ccccc2c1)NC(=O)[C@H](CC(=O)O)NC(=O)[C@H](CCCCN)NC(=O)[C@@H](CC(C)C)NC(=O)[C@H](CCCNC(=N)N)NC(=O)[C@H](CCC(N)=O)NC(=O)[C@@H](NC(=O)[C@@H](CC(C)C)NC(=O)[C@H](CCCNC(=N)N)NC(=O)[C@H](CCCCN)NC(=O)[C@H](Cc1ccc(C(F)(F)F)cc1)NC(=O)CN)C(C)C)C(=O)N[C@H](C(N)=O)C(C)C` is reported as 12.5 µM (broth microdilution; ATCC 13883).
For `CC(=O)N1CCc2cc(S(=O)(=O)N3CCN(c4cc(C(F)(F)F)ccn4)CC3)ccc21`, the MIC was 0.25 µg/mL (microbial growth, broth dilution; 10031; 22 h).
`CC(C)S[C@H]1[C@H](O)[C@@H](N)[C@@H](O[C@H]2[C@H](O[C@@H]3O[C@H](CO)[C@@H](O[C@H]4O[C@@H](CN)[C@@H](O)[C@H](O)[C@H]4N)[C@H]3O)[C@@H](O)[C@H](N)C[C@@H]2N)O[C@@H]1CO` gave an MIC of 8 µg/mL (AG215).
For `CC(C)C[C@@H](NC(=O)[C@@H](CCCCN)NC(=O)[C@@H](CCCCNC(=O)[C@@H](CC(C)C)NC(=O)[C@@H](CCCCN)NC(=O)[C@@H](CCCCNC(=O)[C@@H](CC(C)C)NC(=O)[C@@H](CCCCN)NC(=O)[C@@H](CCCCNC(=O)[C@@H](CC(C)C)NC(=O)[C@H](N)CCCCN)NC(=O)[C@@H](CC(C)C)NC(=O)[C@H](N)CCCCN)NC(=O)[C@@H](CC(C)C)NC(=O)[C@@H](CCCCN)NC(=O)[C@@H](CCCCNC(=O)[C@@H](CC(C)C)NC(=O)[C@H](N)CCCCN)NC(=O)[C@@H](CC(C)C)NC(=O)[C@H](N)CCCCN)NC(=O)[C@@H](CC(C)C)NC(=O)[C@@H](CCCCN)NC(=O)[C@@H](CCCCNC(=O)[C@@H](CC(C)C)NC(=O)[C@@H](CCCCN)NC(=O)[C@@H](CCCCNC(=O)[C@@H](CC(C)C)NC(=O)[C@H](N)CCCCN)NC(=O)[C@@H](CC(C)C)NC(=O)[C@H](N)CCCCN)NC(=O)[C@@H](CC(C)C)NC(=O)[C@@H](CCCCN)NC(=O)[C@@H](CCCCNC(=O)[C@@H](CC(C)C)NC(=O)[C@H](N)CCCCN)NC(=O)[C@@H](CC(C)C)NC(=O)[C@H](N)CCCCN)C(N)=O`, the MIC was 32 µg/mL (broth microdilution; NCTC 418; 37 °C).
With `CC(=O)N1CCc2cc(S(=O)(=O)N3CCN(c4nc(C(F)(F)F)cs4)CC3)ccc21` the MIC was 10.1 µg/mL (microbial growth, broth dilution; 10031; 22 h).
With `CC(C)C[C@@H]1NC(=O)[C@@H](CC(C)C)NC(=O)[C@H](CCN)NC(=O)[C@@H](NC(=O)[C@H](CCN)NC(=O)[C@@H](N)[C@@H](C)O)CCNC(=O)[C@H]([C@@H](C)O)NC(=O)[C@H](CCN)NC(=O)[C@H](CCN)NC1=O` the MIC was greater than 64 µg/mL (broth microdilution; ATCC 11228, CAMHB with polysorbate-80; 16 h).
`Oc1ccc(C(F)(F)F)cc1-c1nc2c(Cl)cc(Cl)cc2[nH]1` gave an MIC of 25 µM (B9).
With `CC[C@H](C)[C@@H]1NC(=O)[C@@H]2CSSC[C@@H]3NC(=O)[C@H](C(C)C)NC(=O)CNC(=O)CNC(=O)[C@H](CCCNC(=N)N)NC(=O)[C@H](CCCNC(=N)N)NC(=O)CNC(=O)[C@H](C(C)C)NC(=O)[C@@H]4CSSC[C@H](NC(=O)[C@H](CC(C)C)NC(=O)[C@H](CCCNC(=N)N)NC(=O)CNC(=O)CNC(=O)[C@H](CO)NC(=O)CNC(=O)[C@H](CO)NC(=O)CNC(=O)[C@@H]5CSSC[C@H](NC(=O)[C@H](CC(=O)O)NC(=O)[C@H](CO)NC(=O)[C@H](CC(=O)O)NC(=O)[C@H](CCCNC(=N)N)NC(=O)[C@H](CCCNC(=N)N)NC(=O)[C@H](CSSC[C@H](NC1=O)C(=O)N[C@@H](CCCNC(=N)N)C(=O)NCC(=O)N[C@@H](CC(N)=O)C(=O)NCC(=O)N[C@@H](Cc1ccc(O)cc1)C(=O)N5)NC(=O)[C@H](CCCNC(=N)N)NC(=O)[C@H](CCC(N)=O)NC(=O)[C@H](CC(C)C)NC(=O)[C@H]([C@@H](C)CC)NC(=O)[C@H](CCCCN)NC(=O)[C@@H]1CCCN1C3=O)C(=O)N1CCC[C@H]1C(=O)NCC(=O)N[C@@H](C)C(=O)N2)C(=O)N[C@@H](Cc1ccc(O)cc1)C(=O)N[C@H]1CSSC[C@H](NC(=O)[C@H](Cc2ccccc2)NC(=O)[C@H](CCCNC(=N)N)NC(=O)[C@H](CCCNC(=N)N)NC(=O)[C@H](CCCNC(=N)N)NC1=O)C(=O)N[C@@H](C(C)C)C(=O)N4` the MIC was 12.5 µM (BAA1705, CAMHB).
For `CCCCCCCCCC(=O)NCCCC[C@@H](NC(=O)[C@@H](CC(C)C)NC(=O)[C@@H](CCCCN)NC(=O)[C@@H](CCCCNC(=O)[C@@H](CC(C)C)NC(=O)[C@@H](CCN)NC(=O)[C@@H](CCCCNC(=O)[C@@H](Cc1ccccc1)NC(=O)[C@H](N)CCCN)NC(=O)[C@@H](Cc1ccccc1)NC(=O)[C@H](N)CCCN)NC(=O)[C@@H](CC(C)C)NC(=O)[C@@H](CCN)NC(=O)[C@@H](CCCCNC(=O)[C@@H](Cc1ccccc1)NC(=O)[C@H](N)CCCN)NC(=O)[C@@H](Cc1ccccc1)NC(=O)[C@H](N)CCCN)C(N)=O`, the MIC was greater than 64 µg/mL (broth microdilution; NCTC 418; 37 °C).
With `CC[P+](CC)(CC)[Au-][S][C@@H]1O[C@H](COC(C)=O)[C@@H](OC(C)=O)[C@H](OC(C)=O)[C@H]1NC(=O)C(Cl)(Cl)Cl` the MIC was greater than 328 µM (ATCC 700603).
With `CCCCCCCCCCCCCc1cc(O)cc(O)c1` the MIC was greater than 64 µg/mL (microbial growth, broth dilution; ATCC10031).
`CC(=NNC(=N)N)c1nnn(-c2ccc(C#CC3(O)CCCCC3)cc2)c1C` has an MIC of 7.8 µg/mL (microbial growth; ATCC13883).
The MIC of `c1ccc(CN2CCOCCOCCN(CCCCCCCCCCCCCCN3CCOCCOCCN(CCCCCCCCCCCCCCN4CCOCCOCCN(Cc5ccccc5)CCOCCOCC4)CCOCCOCC3)CCOCCOCC2)cc1` is reported as 12 µM (ESBL, fluoroquinolone-resistant).
For `CC[P+](CC)(CC)[Au-][S]c1ccc(SCC(=O)N[C@H]2[C@H](OC(C)=O)O[C@H](COC(C)=O)[C@@H](OC(C)=O)[C@@H]2OC(C)=O)cc1`, the MIC was greater than 303 µM (ATCC 700603).
With `CCCCCC/C=C\CCCCCCC[C@@H](O)Cc1cc(O)cc(O)c1` the MIC was greater than 64 µg/mL (microbial growth, broth dilution; ATCC10031).

A few entries again:
For `CC(C)CS[C@H]1[C@H](O)[C@@H](N)[C@@H](O[C@H]2[C@H](O[C@@H]3O[C@H](CO)[C@@H](O[C@H]4O[C@@H](CN)[C@@H](O)[C@H](O)[C@H]4N)[C@H]3O)[C@@H](O)[C@H](N)C[C@@H]2N)O[C@@H]1CO`, the MIC was 4 µg/mL (AG215).
The MIC of `CC(C)C[C@H](NC(=O)[C@H](CC(N)=O)NC(=O)[C@H](CCCNC(=N)N)NC(=O)[C@@H](CC(C)C)NC(=O)[C@H](Cc1ccc2ccccc2c1)NC(=O)[C@H](CC(=O)O)NC(=O)[C@H](CCCCN)NC(=O)[C@@H](CC(C)C)NC(=O)[C@H](CCCNC(=N)N)NC(=O)[C@H](CCC(N)=O)NC(=O)[C@@H](NC(=O)[C@@H](CC(C)C)NC(=O)[C@H](CCCNC(=N)N)NC(=O)[C@H](CCCCN)NC(=O)[C@H](Cc1ccc(C(F)(F)F)cc1)NC(=O)CN)C(C)C)C(=O)N[C@H](C(N)=O)C(C)C` is reported as 12.5 µM (broth microdilution; ATCC 13883).
